Assay results from different studies.
Compare with care: the assays were run in different laboratories.
Organism: Mycobacterium tuberculosis

SMILES | assay | system | conditions | endpoint | result
O=C(C1CCCCC1)N1CCN(S(=O)(=O)c2cccc3cnccc23)CC1 | – | guaB2-guaB3 Tet-OFF attB::guaB3 | with: anhydrotetracycline | MIC90 | 0.07 µM
CCN(CC)C(=O)C[C@H](NC(=O)CCc1ccccc1)C(=O)N[C@@H](Cc1ccc(F)cc1)C(=O)NCc1cccc2ccccc12 | non-replicating bacteria | H37Rv | above twice Ki, 11 days, pH 5.5, with: 0.5 mM NaNO2 | killing | ≤ 2.2 log10 CFU
CCCCNc1oc2c(c1C1CCN(Cc3ccccc3)CC1)C(=O)c1ccccc1C2=O | resazurin microplate | H37Rv | 7 days + 24 h | MIC | 18 µM
Cc1cc(C(F)(F)F)ccc1C(=O)NCc1c2c(c(C)[nH]c1=O)CCCC2 | microbial growth, resazurin | H37RV | 25 µg/mL | inhibition | 34.5%
CC1(c2ccc(S(=O)(=O)c3ccccc3)cc2)OC(=O)C=CC1=O (stereo not drawn) | – | H37Rv, Sauton's medium | with: biotin 1 µM | MIC90 | 100 µg/mL
COc1cccc(-c2ccc(C(=O)NCc3c4c(c(C)[nH]c3=O)CCCC4)cc2)c1 | microbial growth, resazurin | H37RV | 25 µg/mL | inhibition | 43.6%
NNC(=O)c1ccncc1 | intracellular bacterial growth | J774.1 mouse macrophages, mc^26206 | – | IC50 | 440 nM
Cc1[nH]c(=O)c(CNC(=O)c2ccc([N+](=O)[O-])cc2)c2c1CCCC2 | microbial growth, resazurin | H37RV | 25 µg/mL | inhibition | 12.6%
O=[N+]([O-])c1cc(C(F)(F)F)ccc1NCCc1c[nH]c2ccc(O)cc12 | bacterial growth | infected macrophages, H37Rv | 3 days | IC90 | 9300 nM
COc1ccc2c(ccc3oc([N+](=O)[O-])cc32)c1 | – | H37Rv | – | MIC90 | 0.031 to 0.5 µg/mL
COc1cc(C)cc(-c2ccc(C(=O)NCc3c4c(c(C)[nH]c3=O)CCCC4)cc2)c1 | microbial growth, resazurin | H37RV | 25 µg/mL | inhibition | 93.7%
O=[N+]([O-])c1cc2c(ccc3cc(Br)ccc32)o1 | – | H37Rv | – | MIC90 | 0.031 to 0.5 µg/mL
CO[C@H]1/C=C/O[C@@]2(C)Oc3c(C)c(O)c4c(O)c(c(/C=N/N5CCN(C)CC5)c(O)c4c3C2=O)NC(=O)/C(C)=C\C=C\[C@H](C)[C@H](O)[C@@H](C)[C@@H](O)[C@@H](C)[C@H](OC(C)=O)[C@@H]1C | intracellular bacterial growth | J774.1 mouse macrophages, mc^26206 | – | IC50 | 130 nM
COc1cc(-c2ccc(C(=O)NCc3c4c(c(C)[nH]c3=O)CCCC4)cc2)cc(C(F)(F)F)c1 | microbial growth, resazurin | H37RV | 25 µg/mL | inhibition | 36.9%
COc1cc2ccc3oc([N+](=O)[O-])cc3c2cc1OC | – | H37Rv | – | MIC90 | 0.031 to 0.5 µg/mL
